Assay results of several laboratories.
Lines come from different studies, so protocols differ.
Cell line: HCT-15

CCCN1CCN(c2ccc3[nH]c(-c4ccc5[nH]c(-c6ccc(OCC)c(OCC)c6)nc5c4)nc3c2)CC1  growth percent (SRB; 10 µM, 48 h): 5.97%
C#C[C@@]1(O)[C@@H](CO)O[C@@H](n2ccc3c(N)ncnc32)[C@@H]1O  TGI (SRB; NCI-60 screen): 4.62 µM
CCOC(=O)CSc1nc(-c2ccc(Cl)cc2)c2c(NC(=O)c3ccccc3)nnc-2[nH]1  cell growth (SRB; 10 µM, NCI60 single-dose screen, colon cancer; baseline: untreated): 89.2%
COc1cnc2cccc(N3CCc4c(cc(Cn5ccnc5C)cc4-c4cn(C)nc4C(F)(F)F)C3=O)c2c1  EC50 (cell growth, inhibitor; 120 h): 5.88 µM
O=c1ccn(Cc2cn(-c3cc4ccccc4oc3=O)nn2)c(=O)[nH]1  growth percentage (NCI60 single-dose screen; 10 µM): 109%
O=C(Nc1nnc2n3c(nc(-c4ccc(Cl)cc4)c1-2)SCC3=O)c1ccccc1  cell growth (SRB; 10 µM, NCI60 single-dose screen, colon cancer; baseline: untreated): 101%
CCCCN1CCN(c2ccc3[nH]c(-c4ccc5[nH]c(-c6ccc(OCC)cc6)nc5c4)nc3c2)CC1  growth percent (SRB; 10 µM, 48 h): 16.6%
O=C1NC(c2ccccc2)(c2ccccc2)C(=O)N1Cc1cn(-c2cc3ccccc3oc2=O)nn1  growth percentage (NCI60 single-dose screen; 10 µM): 92.7%
CCCCN1CCN(c2ccc3nc(-c4ccc5nc(-c6cc(OC)ccc6OC)[nH]c5c4)[nH]c3c2)CC1  growth percent (SRB; 10 µM, 48 h): 81.7%
Cc1cc(=O)[nH]c(=O)n1Cc1cn(-c2c3ccccc3nc3ccccc23)nn1  growth percentage (NCI60 single-dose screen; 10 µM): 79.2%
C#C[C@@]1(O)[C@@H](CO)O[C@@H](n2cc(Br)c3c(N)ncnc32)[C@@H]1O  TGI (SRB; NCI-60 screen): > 100 µM
CSc1nc(-c2ccc(Cl)cc2)c2c(NC(=O)c3ccccc3)nnc-2[nH]1  cell growth (SRB; 10 µM, NCI60 single-dose screen, colon cancer; baseline: untreated): 100%
CCCN1CCN(c2ccc3[nH]c(-c4ccc5[nH]c(-c6ccc(C(F)(F)F)cc6)nc5c4)nc3c2)CC1  growth percent (SRB; 10 µM, 48 h): -55.1%
Cc1cc(=O)[nH]c(=O)n1Cc1cn(-c2cc3ccccc3oc2=O)nn1  growth percentage (NCI60 single-dose screen; 10 µM): 105%
CCn1cc(-c2cc(Cn3ccoc3=N)cc3c2CCN([C@@H](C)c2cc(OC)ccn2)C3=O)c(C(F)(F)F)n1  EC50 (cell growth, inhibitor; 120 h): 3.3 µM
C#C[C@@]1(O)[C@@H](CO)O[C@@H](n2cc(I)c3c(N)ncnc32)[C@@H]1O  TGI (SRB; NCI-60 screen): > 100 µM
Cc1cc(=O)[nH]n1-c1nc(-c2ccc(Cl)cc2)c2c(NC(=O)c3ccccc3)nnc-2[nH]1  cell growth (SRB; 10 µM, NCI60 single-dose screen, colon cancer; baseline: untreated): 81.2%
S=C([S][Au-][P+](CCCCCC[P+]([Au-][S]C(=S)n1cccn1)(c1ccccc1)c1ccccc1)(c1ccccc1)c1ccccc1)n1cccn1  log10 TGI (cell growth, NCI-60 screen; colon cancer): > -4
CCCN1CCN(c2ccc3nc(-c4ccc5nc(-c6cc(OC)ccc6OC)[nH]c5c4)[nH]c3c2)CC1  growth percent (SRB; 10 µM, 48 h): 62.1%
O=C1NC(=NCc2cccs2)S/C1=C\c1ccc2ncccc2c1  IC50 (MTS; colon cancer): 3.84 µM
CCCN1CCN(c2ccc3[nH]c(-c4ccc5[nH]c(-c6cc(OC)c(OC)c(OC)c6)nc5c4)nc3c2)CC1  growth percent (SRB; 10 µM, 48 h): 99.5%
O=C(Nc1nnc2n3c(Cc4ccccc4)n[nH]c3nc(-c3ccc(Cl)cc3)c1-2)c1ccccc1  cell growth (SRB; 10 µM, NCI60 single-dose screen, colon cancer; baseline: untreated): 102%

A few entries again:
O=c1ccn(Cc2cn(-c3cc4ccccc4oc3=O)nn2)c(=O)[nH]1  growth percentage (NCI60 single-dose screen; 10 µM): 109%
O=C(Nc1nnc2n3c(nc(-c4ccc(Cl)cc4)c1-2)SCC3=O)c1ccccc1  cell growth (SRB; 10 µM, NCI60 single-dose screen, colon cancer; baseline: untreated): 101%
